{"data": "Experimental data pooled from the literature", "note": "Each numbered part is a random draw from the data of one study; scales do not carry over between parts."}
{"data": "Set 1", "target": "RING finger protein unkempt homolog, zinc fingers 1-6, SBP tag (UNK, Homo sapiens, UniProt Q9C0B0, residues 30-357)", "method": "RNA Bind-n-Seq", "molecule type": "RNA", "medium": "in vitro", "concentration": "100 nM", "setting": "RNA with constant flanks, vertebrate orthologous sites, ends assumed", "relative to": "input RNA pool", "reading": "higher = stronger binding", "all sequences stand within": "GGGAGUUCUACAGUCCGACGAUC … CAACAGAGGAUUGAGCAUCA", "sequence of UniProt Q9C0B0 (30-357, looked up)": "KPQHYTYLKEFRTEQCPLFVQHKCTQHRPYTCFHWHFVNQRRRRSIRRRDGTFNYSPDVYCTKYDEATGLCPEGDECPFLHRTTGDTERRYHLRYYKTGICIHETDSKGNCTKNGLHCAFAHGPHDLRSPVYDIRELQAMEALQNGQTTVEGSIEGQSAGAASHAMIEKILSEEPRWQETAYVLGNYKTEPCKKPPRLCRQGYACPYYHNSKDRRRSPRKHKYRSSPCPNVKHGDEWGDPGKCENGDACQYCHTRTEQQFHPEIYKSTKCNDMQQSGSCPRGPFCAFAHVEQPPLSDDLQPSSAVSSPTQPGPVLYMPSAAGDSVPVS"}
{"Oligonucleotide": "GGUCUAGUUAGGGAUACCUUUUAAUUUAUUUUAAUAAAGUACUGAAAUGCUGAAAAUCAUUAGUACUAAGUUUAGUUGGACAAGUGAGGUAAGUUUCUUUUCGACAGCUCCAAAGUAAAC", "bound/input enrichment [ratio]": 0.771}
{"Oligonucleotide": "UUGGAUGAGGGUAGAGGGGAGGGAGGGGCAGGAUAGUAUGGAAUCUCUAGGGUGUUAUGGGUAGGUAGGGGAAACAGUUCUAAGUGGGCCUUUGUUAAAAACCUCUGGAGGUGUCUGUUC", "bound/input enrichment [ratio]": 0.854}
{"Oligonucleotide": "AGGGAUGGCCCCCAAUCCCACUUCUGUUUAUUCUGUAAACUACAACCUGUAAAUAACGUUUAGCAUUCCUAUUGUAACAAAAUUAAUUUUUAUGAAAUAAAUUAUAUUUCCUAGUCUAAU", "bound/input enrichment [ratio]": 1.5}
{"Oligonucleotide": "AAAUUUAUUUCAUGCCCUGGACUCCAUAUCGUACUGAUACUUUGAUAGAAUAUGCUUCUUUAGAAGAUUUCCAAAACAGUCGCCAAACAACAACAUACAAACUUCCAAAUCGAGUAGAUG", "bound/input enrichment [ratio]": 1.14}
{"Oligonucleotide": "GCUGUUAAUGCACUGUAUUCCAGGCAUCGUCUGAUUUUUAGUGUAAUCUAGGAGAUUUUAUAAUUUUAUUUUAAUGAAGUAUUGAUUGAUGCAAAGUUGUUAGCAGUCUGUAGUCUUUUA", "bound/input enrichment [ratio]": 1.19}
{"Oligonucleotide": "AUUUGGUUAAUUUUGAUCUCCUCUUCCUCUUCCUUGCCCACCCAUACAAUUUUUUUUUAUGCAUAUUUAGUAACACUAGCUCUCCAGGUUCAAUUUAGGAAAAUGAUUCUCAAGAACAAA", "bound/input enrichment [ratio]": 2.02}
{"Oligonucleotide": "UUGGGAACAGCUCUCCAAAUAGGAGUAGUAGUAAAAAAAAUAAGCAAAAUGAUAUGUGUAUAGAAAAAACAGAAGUUAAAUCAUGUAAAGUAAAUGCUGCCAACCUUCCCGGCCCUAAAG", "bound/input enrichment [ratio]": 0.865}
{"Oligonucleotide": "GUGAAUAUUUGGAGUCCACAUCGUUGCUCUGAGACCCCUGCCGUCUGGAGGCUCAGACCACAGGAGGGUGUUGCUGCGUUUUCCCAAUUUGUGUACUGGGUCCUAAGUUACAUUUUAAAA", "bound/input enrichment [ratio]": 0.339}
{"data": "Set 2", "target": "Interferon regulatory factor 5, full length, phosphomimetic (IRF5, Homo sapiens, UniProt Q13568-2, residues 1-514, S451D/S453D/S456D/S462D)", "method": "protein-binding microarray", "molecule type": "double-stranded DNA, one strand shown", "medium": "in vitro", "concentration": "940 nM top", "setting": "60-bp whole probe", "with": "salmon DNA 0.4 mg/ml", "relative to": "random background probes", "reading": "higher = stronger binding", "all sequences stand within": "GCCTAGCAC … GTCTTGATTCGCTTGACGCTGCTG"}
{"Oligonucleotide": "GACGATATCAGTCTCAAGACGTGCTAG", "fitted relative affinity [z-score]": 0.135}
{"Oligonucleotide": "GACGGTTTCGGACTGGAGACGTGCTAG", "fitted relative affinity [z-score]": 5.66}
{"Oligonucleotide": "GACGGTCTCGGTCTCGGGATGTGCTAG", "fitted relative affinity [z-score]": 3.77}
{"Oligonucleotide": "GACGATTTCAGTTCCGCGACGTGCTAG", "fitted relative affinity [z-score]": 0.651}
{"Oligonucleotide": "CGCCCTCTCAACCATCCTGGGGTGCTA", "fitted relative affinity [z-score]": 0.593}
{"Oligonucleotide": "TCAGTTGTGATTCTTTCACTGTGCTAG", "fitted relative affinity [z-score]": 0.142}
{"Oligonucleotide": "TCAAATTTTAATAACACACTGTGCTAG", "fitted relative affinity [z-score]": 0.235}
{"Oligonucleotide": "TTAGGACTGCTTTTCCTGTAGTGCTAG", "fitted relative affinity [z-score]": -0.276}
{"Oligonucleotide": "TCAACTTTCTTAATGCTACTGTGCTAG", "fitted relative affinity [z-score]": 1.16}
{"Oligonucleotide": "TCATGTTTCTCAACCATACTGTGCTAG", "fitted relative affinity [z-score]": 1.03}
{"Oligonucleotide": "AGATATTCAGGTATATAAAGGTGCTAG", "fitted relative affinity [z-score]": -0.0092}
{"Oligonucleotide": "TTAGGACTGGGTCTCGGTCAGTGCTAG", "fitted relative affinity [z-score]": 0.87}
{"Oligonucleotide": "GACGAACTGGGGTATAGAGACGTGCTA", "fitted relative affinity [z-score]": -0.244}
{"Oligonucleotide": "TTAGGACTAGGTCTCGGTTAGTGCTAG", "fitted relative affinity [z-score]": 1.23}
{"Oligonucleotide": "TTGGGTATCGACTTTCGGTTAGTGCTA", "fitted relative affinity [z-score]": 5.69}
{"Oligonucleotide": "TCAATTTTCTGAATGCTACTGTGCTAG", "fitted relative affinity [z-score]": 0.429}
{"data": "Set 3", "target": "Histone acetyltransferase KAT6A, winged helix 2, GST fusion (KAT6A, Homo sapiens, UniProt Q92794, residues 85-181)", "method": "protein binding microarray", "molecule type": "double-stranded DNA, one strand shown", "medium": "in vitro", "concentration": "not given", "setting": "8-mer, flanks averaged, mean of 2 arrays, mostly near background", "relative to": "not given", "reading": "higher = stronger binding", "Construct (chain)": "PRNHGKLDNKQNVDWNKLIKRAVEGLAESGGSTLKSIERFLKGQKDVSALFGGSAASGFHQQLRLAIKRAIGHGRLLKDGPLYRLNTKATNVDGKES"}
{"Oligonucleotide": "AACACCCG", "E-score": 0.0794}
{"Oligonucleotide": "GATTGTGC", "E-score": -0.00754}
{"Oligonucleotide": "CGATCCTA", "E-score": -0.107}
{"Oligonucleotide": "CTGGTTAC", "E-score": -0.175}
{"Oligonucleotide": "CCTGGCAC", "E-score": -0.00169}
{"Oligonucleotide": "AGATCCAG", "E-score": 0.11}
{"Oligonucleotide": "GCTGCAAC", "E-score": -0.042}
{"Oligonucleotide": "CAAACGGC", "E-score": -0.0801}
{"Oligonucleotide": "CAAGGGAG", "E-score": 0.121}
{"Oligonucleotide": "CCTTGTTA", "E-score": 0.0886}
{"Oligonucleotide": "AATGGAAT", "E-score": 0.162}
{"Oligonucleotide": "ATGGATTC", "E-score": 0.00912}
{"Oligonucleotide": "GAGCGCTA", "E-score": 0.0386}
{"Oligonucleotide": "CCATAGGC", "E-score": 0.0313}
{"Oligonucleotide": "CTTGGGAA", "E-score": 0.0929}
{"Oligonucleotide": "CGCAAAAC", "E-score": 0.101}
{"Oligonucleotide": "AAGATGCC", "E-score": 0.139}
{"Oligonucleotide": "TCTATACA", "E-score": -0.159}
{"Oligonucleotide": "GTGAACAA", "E-score": 0.0485}
{"Oligonucleotide": "CGTACCAG", "E-score": 0.0312}
{"Oligonucleotide": "CACGCATA", "E-score": -0.0622}
{"Oligonucleotide": "AGTCATTG", "E-score": -0.267}
{"Oligonucleotide": "AAAGCATG", "E-score": 0.0756}
{"data": "Set 4", "target": "RNA binding protein fox-1 homolog 2, RRM domain, GST-SBP tag (RBFOX2, Homo sapiens, UniProt O43251-10, residues 100-194)", "method": "RNA Bind-n-Seq", "molecule type": "RNA", "medium": "in vitro", "concentration": "365 nM", "setting": "natural RNA segment, single round, ends assumed", "relative to": "no-protein control", "reading": "higher = stronger binding", "all sequences stand within": "GGGAGUUCUACAGUCCGACGAUC … UGGAAUUCUCGGGUGCCAA", "Target sequence (chain)": "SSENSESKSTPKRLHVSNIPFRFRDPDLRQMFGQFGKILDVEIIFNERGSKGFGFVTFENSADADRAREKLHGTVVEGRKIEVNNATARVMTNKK"}
{"Oligonucleotide": "AUUAGUGAUUUGGAAAGUUAACAGUAAGAAGACUAACUUUUCAAAACAGUUGCAUCUGUAGAUUAAGAUGCUUUACAUUAGACCGUUGUGUCUCGAUGUAUAUCUGUAUA", "RBNS enrichment (R)": 0.363}
{"Oligonucleotide": "GGCUCACGUGGCCCAGGCUGGUGCGCCCGCUGUCUCGGUAAGGGGCGGGUUGGUGUGUUUUCCCCUUGUGUACCAGAGCACAUUCCUUAGGGGACGGCUUUGGGGGUCCC", "RBNS enrichment (R)": 0.247}
{"Oligonucleotide": "CAUAUAUUUUACUGUCAGUUGUCUCAACUCUUGAAUCCAUGUGGCGUUUUCUCUGUCCUGCUGCUUCUUUUGGCCUCCUCGUUUUCCUUCUCUUUUUCGACAAUGGUAGA", "RBNS enrichment (R)": 0.275}
{"Oligonucleotide": "CUGCAGCUGUCAUGGCUUUACAGUCACUUGGGAAAUGCAAGCCACUGUUAAAGCUUUGUCCUGUUCAUCACUGUCCCUGCUCCUGGCAUAACACUUCCAGAGGCUUUCCU", "RBNS enrichment (R)": 0.221}
{"Oligonucleotide": "UUCACAGGGAUCAUUCUCUUCUCUCCUUUUUAAUGAAGUCCAAAAUCACAGGAAGUGAAGAACAUUUCAUUUAUCUGUUCUAAAAUUUCUGCUGUCAGAGUGUCUAAGAG", "RBNS enrichment (R)": 0.328}
{"Oligonucleotide": "CAUAUAAAGUAUAUAUAUAUGUAUGAUACAUGAAAUAUAUUUAGAAAUGUUCAUAAUUUUAAUGGAUAUUCUUUGGUGUGAAUAAUUGAAUACAACAUUUUUAAAAUAUC", "RBNS enrichment (R)": 1.11}
{"Oligonucleotide": "AGGCAUUUUACAAAUUAUUUUUCAAGCAGUCAUUCUUGAUUGUUUGACUUUUUUUUUUAAAUUAAAGAUUGGGAAUGUAUGUGAGAGUAUGCAUAUGUAUGGGUGUGUGU", "RBNS enrichment (R)": 0.686}
{"Oligonucleotide": "CUCCUUGUAACCUUCUGUAACUAUUGGAUGACGCUUUCUCCAGCUUAGCCCUAAAUAAAGCACAGUUAAAAAAAAAACCAAAAACCUCAAAGAGUCCUUAUUGCUCUGUG", "RBNS enrichment (R)": 0.652}
{"note": "Some of these lines once more (set 1):"}
{"Oligonucleotide": "GCUGUUAAUGCACUGUAUUCCAGGCAUCGUCUGAUUUUUAGUGUAAUCUAGGAGAUUUUAUAAUUUUAUUUUAAUGAAGUAUUGAUUGAUGCAAAGUUGUUAGCAGUCUGUAGUCUUUUA", "bound/input enrichment [ratio]": 1.19}
{"Oligonucleotide": "UUGGGAACAGCUCUCCAAAUAGGAGUAGUAGUAAAAAAAAUAAGCAAAAUGAUAUGUGUAUAGAAAAAACAGAAGUUAAAUCAUGUAAAGUAAAUGCUGCCAACCUUCCCGGCCCUAAAG", "bound/input enrichment [ratio]": 0.865}
{"Oligonucleotide": "GUGAAUAUUUGGAGUCCACAUCGUUGCUCUGAGACCCCUGCCGUCUGGAGGCUCAGACCACAGGAGGGUGUUGCUGCGUUUUCCCAAUUUGUGUACUGGGUCCUAAGUUACAUUUUAAAA", "bound/input enrichment [ratio]": 0.339}
{"Oligonucleotide": "AGGGAUGGCCCCCAAUCCCACUUCUGUUUAUUCUGUAAACUACAACCUGUAAAUAACGUUUAGCAUUCCUAUUGUAACAAAAUUAAUUUUUAUGAAAUAAAUUAUAUUUCCUAGUCUAAU", "bound/input enrichment [ratio]": 1.5}
{"Oligonucleotide": "UUGGAUGAGGGUAGAGGGGAGGGAGGGGCAGGAUAGUAUGGAAUCUCUAGGGUGUUAUGGGUAGGUAGGGGAAACAGUUCUAAGUGGGCCUUUGUUAAAAACCUCUGGAGGUGUCUGUUC", "bound/input enrichment [ratio]": 0.854}
{"Oligonucleotide": "AAAUUUAUUUCAUGCCCUGGACUCCAUAUCGUACUGAUACUUUGAUAGAAUAUGCUUCUUUAGAAGAUUUCCAAAACAGUCGCCAAACAACAACAUACAAACUUCCAAAUCGAGUAGAUG", "bound/input enrichment [ratio]": 1.14}
{"Oligonucleotide": "GGUCUAGUUAGGGAUACCUUUUAAUUUAUUUUAAUAAAGUACUGAAAUGCUGAAAAUCAUUAGUACUAAGUUUAGUUGGACAAGUGAGGUAAGUUUCUUUUCGACAGCUCCAAAGUAAAC", "bound/input enrichment [ratio]": 0.771}
{"Oligonucleotide": "AUUUGGUUAAUUUUGAUCUCCUCUUCCUCUUCCUUGCCCACCCAUACAAUUUUUUUUUAUGCAUAUUUAGUAACACUAGCUCUCCAGGUUCAAUUUAGGAAAAUGAUUCUCAAGAACAAA", "bound/input enrichment [ratio]": 2.02}
